{"data": "Results from different studies", "cell line": "HT-29", "note": "± marks the error that the study gave."}
{"SMILES": "COc1cc(CNC(=O)C[C@H](C)CCC=C(C)C)ccc1OCc1cn(-c2ccccc2Cl)nn1", "test": "SRB", "setting": "10 µM, 48 h", "endpoint": "growth percent", "value": "76.7%"}
{"SMILES": "CC(=O)OC[C@H]1O[C@@H](Sc2sc(C(=O)c3ccc(C)cc3)c(N)c2-c2nc3ccccc3s2)[C@H](OC(C)=O)[C@@H](OC(C)=O)[C@H]1OC(C)=O", "test": "SRB", "setting": "10 µM, 48 h", "scale": "baseline: untreated", "endpoint": "growth", "value": "94.2%"}
{"SMILES": "CCCCc1ccc(C(=O)O[C@@H]2CC(=O)O[C@H](C)C/C=C/C=C/[C@H](O[C@H]3CC[C@H](N(C)C)[C@@H](C)O3)[C@H](C)C[C@H](CC=O)[C@H](O[C@@H]3O[C@H](C)[C@@H](O[C@H]4C[C@@](C)(O)[C@@H](O)[C@H](C)O4)[C@H](N(C)C)[C@H]3O)[C@H]2OC)cc1", "test": "cell growth or viability, CCK-8", "setting": "72 h", "endpoint": "IC50", "value": "1.45 µM"}
{"SMILES": "COc1cc(CNC(=O)C[C@H](C)CCC=C(C)C)ccc1OCc1cn(-c2ccc(F)cc2)nn1", "test": "SRB", "setting": "10 µM, 48 h", "endpoint": "growth percent", "value": "103%"}
{"SMILES": "CCC(=C(c1ccc(Cl)cc1)c1ccc(OCCCN(C)C)cc1)c1ccc(OC)cc1", "test": "cell growth or viability, SRB", "endpoint": "GI50", "value": "1.06 µM"}
{"SMILES": "CCN1CCN(Cc2ccc(Nc3ncc4c(n3)N(C)c3ccccc3C(=O)N4C)cc2C(F)(F)F)CC1", "test": "cell growth or viability, ATP luminescence", "setting": "96 h", "endpoint": "EC50", "value": "0.951 µM"}
{"SMILES": "COc1cc(CNC(=O)C[C@H](C)CCC=C(C)C)ccc1OCc1cn(-c2ccc([N+](=O)[O-])cc2)nn1", "test": "SRB", "setting": "10 µM, 48 h", "endpoint": "growth percent", "value": "108%"}
{"SMILES": "CO[C@@H]1[C@@H](O[C@@H]2O[C@H](C)[C@@H](O[C@H]3C[C@@](C)(O)[C@@H](OC(=O)Cc4ccc(C(C)(C)C)cc4)[C@H](C)O3)[C@H](N(C)C)[C@H]2O)[C@@H](CC=O)C[C@@H](C)[C@@H](O[C@H]2CC[C@H](N(C)C)[C@@H](C)O2)/C=C/C=C/C[C@@H](C)OC(=O)C[C@H]1O", "test": "cell growth or viability, CCK-8", "setting": "72 h", "endpoint": "IC50", "value": "1.64 µM"}
{"SMILES": "O=C1CCNC(=O)[C@@H]2CCCN2C(=O)CCNC(=O)[C@H](Cc2c[nH]cn2)NC(=O)[C@H](Cc2c[nH]cn2)N1", "test": "LDH release", "setting": "10 µg/mL, 6 h, 1% FBS", "endpoint": "viability", "value": "34.3%"}
{"SMILES": "O=C(Cc1cccc(C(F)(F)F)c1)Nc1cc(Oc2cc3sc(NC(=O)C4CC4)nc3cc2Br)ccc1F", "test": "necroptosis, CellTiter-Glo", "setting": "with: TNF, SMAC mimetic and zVAD (TSZ)", "endpoint": "EC50", "value": "0.17 ± 0.02 µM"}
{"SMILES": "CC[C@H](C)[C@@H]1NC(=O)[C@@H](CCC(N)=O)NC(=O)CNC(=O)[C@H](Cc2ccc(O)cc2)N=C[C@H](CC(C)C)NC(=O)[C@H](C(C)C)NC(=O)[C@H](CO)NC1=O", "test": "cytotoxicity", "setting": "3 days", "endpoint": "ED50", "value": "> 20 µg/mL"}
{"SMILES": "CC12CCCC(n3cc(C(=O)N4CCCC(N)C4)nn3)(C1)C1CC(C)(C)C1CC2 (stereo not drawn)", "test": "annexin V/PI flow cytometry", "setting": "5 µM, 48 h", "endpoint": "apoptotic cells", "value": "26.7%"}
{"SMILES": "CCCC(C)NC(=O)C(Nc1ccccc1C(=O)c1ccccc1)c1cn(C)c2ccccc12 (stereo not drawn)", "test": "cell growth or viability, MTT", "setting": "72 h", "endpoint": "GI50", "value": "6.4 µM"}
{"SMILES": "O=C(Cc1cccc(C(F)(F)F)c1)Nc1cc(Oc2c(F)cc3nc(NC(=O)C4CC4)sc3c2F)ccc1F", "test": "necroptosis, CellTiter-Glo", "setting": "with: TNF, SMAC mimetic and zVAD (TSZ)", "endpoint": "EC50", "value": "0.009 ± 0.002 µM"}
{"SMILES": "Cc1ccc(C(C)C)cc1.O=C([N-]c1nc2ccccc2s1)c1cnccn1.[Cl-].[Ru+2]", "test": "cytotoxicity, MTT", "scale": "baseline: KMST-6 over HT-29", "endpoint": "selectivity index", "value": "> 2"}
{"SMILES": "COc1cc2nc(NC(=O)C3CC3)sc2cc1Oc1ccc(F)c(NC(=O)Cc2cccc(C(F)(F)F)c2)c1", "test": "necroptosis, CellTiter-Glo", "setting": "with: TNF, SMAC mimetic and zVAD (TSZ)", "endpoint": "EC50", "value": "0.01 ± 0.002 µM"}
{"SMILES": "O=C(CCNC(=O)[C@H](Cc1c[nH]cn1)NC(=O)[C@@H]1CCCN1)NCCC(=O)N[C@@H](Cc1c[nH]cn1)C(=O)O", "test": "MTT", "setting": "10 µg/mL, 6 h", "endpoint": "viability", "value": "26.5%"}
{"SMILES": "O=C(Cc1cccc(C(F)(F)F)c1)Nc1cc(Oc2c(F)cc3nc(NC(=O)C4CC4)sc3c2Cl)ccc1F", "test": "necroptosis, CellTiter-Glo", "setting": "with: TNF, SMAC mimetic and zVAD (TSZ)", "endpoint": "EC50", "value": "0.076 ± 0.005 µM"}
{"SMILES": "O=C1CCNC(=O)[C@H](Cc2c[nH]cn2)NC(=O)[C@@H]2CCCN2C(=O)[C@H](Cc2c[nH]cn2)NC(=O)CCN1", "test": "LDH release", "setting": "10 µg/mL, 6 h, 1% FBS", "endpoint": "viability", "value": "71.6%"}
{"SMILES": "O=C(Cc1cccc(C(F)(F)F)c1)Nc1cc(Oc2c(Cl)cc3nc(NC(=O)C4CC4)sc3c2Cl)ccc1F", "test": "necroptosis, CellTiter-Glo", "setting": "with: TNF, SMAC mimetic and zVAD (TSZ)", "endpoint": "EC50", "value": "0.18 ± 0.04 µM"}
{"SMILES": "O=C(/C=C(O)/C=C/c1cccs1)/C=C/c1cccs1", "test": "DCFH-DA, SRB-normalized", "setting": "10 µM", "scale": "baseline: untreated cells", "endpoint": "intracellular ROS", "value": "135 ± 10.4%"}
{"SMILES": "O=C(Cc1cccc(C(F)(F)F)c1)Nc1cc(Oc2cc(C(=O)O)c3nc(NC(=O)C4CC4)sc3c2)ccc1F", "test": "necroptosis, CellTiter-Glo", "setting": "with: TNF, SMAC mimetic and zVAD (TSZ)", "endpoint": "EC50", "value": "> 10 µM"}
{"SMILES": "Oc1cc(O)c2c(c1)OC(c1ccc(O)c(O)c1)C(OC1(c3ccc(O)c(O)c3)Oc3cc(O)cc(O)c3C(O)C1O)C2 (stereo not drawn)", "test": "agonist, dynamic mass redistribution", "endpoint": "maximal DMR response", "value": "> 1000 pm"}
{"SMILES": "O=C(Cc1cccc(C(F)(F)F)c1)Nc1cc(Oc2ccc3nc(NC(=O)C4CC4)sc3c2C(=O)O)ccc1F", "test": "necroptosis, CellTiter-Glo", "setting": "with: TNF, SMAC mimetic and zVAD (TSZ)", "endpoint": "EC50", "value": "> 10 µM"}
{"SMILES": "COc1cc(CNC(=O)C[C@H](C)CCC=C(C)C)ccc1OCc1cn(-c2cccc(C(F)(F)F)c2)nn1", "test": "SRB", "setting": "10 µM, 48 h", "endpoint": "growth percent", "value": "96.6%"}
{"SMILES": "O=C(Cc1cccc(C(F)(F)F)c1)Nc1cc(Oc2cc(F)c3nc(NC(=O)C4CC4)sc3c2)ccc1F", "test": "necroptosis, CellTiter-Glo", "setting": "with: TNF, SMAC mimetic and zVAD (TSZ)", "endpoint": "EC50", "value": "4.57 ± 1.22 µM"}
{"SMILES": "Cc1nn(-c2ccc(S(=O)(=O)N[C@@H](CO)CC(C)C)cc2)c2nn3nnnc3nc12", "test": "PI/Hoechst staining", "setting": "0.5 µM, 24 h", "endpoint": "apoptotic cells", "value": "21.5 ± 2.12%"}
{"note": "Excerpt of the above:"}
{"SMILES": "O=C1CCNC(=O)[C@H](Cc2c[nH]cn2)NC(=O)[C@@H]2CCCN2C(=O)[C@H](Cc2c[nH]cn2)NC(=O)CCN1", "test": "LDH release", "setting": "10 µg/mL, 6 h, 1% FBS", "endpoint": "viability", "value": "71.6%"}
{"SMILES": "O=C(Cc1cccc(C(F)(F)F)c1)Nc1cc(Oc2c(Cl)cc3nc(NC(=O)C4CC4)sc3c2Cl)ccc1F", "test": "necroptosis, CellTiter-Glo", "setting": "with: TNF, SMAC mimetic and zVAD (TSZ)", "endpoint": "EC50", "value": "0.18 ± 0.04 µM"}
{"SMILES": "O=C(/C=C(O)/C=C/c1cccs1)/C=C/c1cccs1", "test": "DCFH-DA, SRB-normalized", "setting": "10 µM", "scale": "baseline: untreated cells", "endpoint": "intracellular ROS", "value": "135 ± 10.4%"}
{"SMILES": "O=C(Cc1cccc(C(F)(F)F)c1)Nc1cc(Oc2cc(C(=O)O)c3nc(NC(=O)C4CC4)sc3c2)ccc1F", "test": "necroptosis, CellTiter-Glo", "setting": "with: TNF, SMAC mimetic and zVAD (TSZ)", "endpoint": "EC50", "value": "> 10 µM"}
